Assay results of several laboratories.
Compare with care: the assays were run in different laboratories. Values joined by “and” are separate records of one study, mostly repeats; a detail may differ. ± marks the error that the study gave.

Compound | test | system | setting | scale | endpoint | value
O=C(Nc1ccccc1)C1CCN(C(=O)Oc2cccnc2)CC1 | – | healthy women | oral, 20 mg, 7 days | – | adverse event Somnolence | 0%
O=C(c1ccc(F)c(F)c1Nc1ccc(I)cc1F)N1CC(O)([C@@H]2CCCCN2)C1 | – | patients aged 6 to sample A years | oral, dose not given | – | AE leading treatment withdrawal | 7%
O=[N+]([O-])c1ccc2c(c1)S(=O)(=O)C=C2 | – | male C57BL/6 mice, blood | intraperitoneal, 20 mg/kg, day 8, group average | – | haemoglobin | 187 g/L
CCCCCCCCCCCCCCCC(=O)N[C@@H](CCC(=O)NCCCC[C@H](NC(=O)[C@H](CC(=O)O)NC(=O)[C@H](CO)NC(=O)[C@@H](NC(=O)[C@H](Cc1ccccc1)NC(=O)[C@@H](NC(=O)CNC(=O)[C@H](CCC(N)=O)NC(=O)[C@H](CO)NC(=O)[C@@H](N)Cc1c[nH]cn1)[C@@H](C)O)[C@@H](C)O)C(=O)N[C@@H](CO)C(=O)N[C@@H](CCC(=O)O)C(=O)N[C@@H](Cc1ccc(O)cc1)C(=O)N[C@@H](CC(C)C)C(=O)N[C@@H](CC(=O)O)C(=O)N[C@@H](CO)C(=O)N[C@@H](CCC(=O)O)C(=O)N[C@@H](CCCNC(=N)N)C(=O)N[C@@H](C)C(=O)N[C@@H](CCCNC(=N)N)C(=O)N[C@@H](CC(=O)O)C(=O)N[C@@H](Cc1ccccc1)C(=O)N[C@H](C(=O)N[C@@H](C)C(=O)N[C@@H](Cc1c[nH]c2ccccc12)C(=O)N[C@@H](CC(C)C)C(=O)N[C@@H](CCC(=O)O)C(=O)N[C@@H](C)C(=O)NCC(=O)NCC(=O)O)C(C)C)C(=O)O | – | human, CrCl < 20 mL/min | sc, 100 µg single dose | – | treatment-related adverse events | 33.3%
CC(C)C[C@H](NC(=O)[C@H](CCCCN)NC(=O)OCC1c2ccccc2-c2ccccc21)C(=O)N[C@H](C(=O)N[C@@H](Cc1ccccc1)C(=O)N[C@@H](Cc1ccccc1)C(=O)N[C@@H](CCCCN)C(=O)NCC(=O)N[C@@H](Cc1ccccc1)C(=O)N[C@@H](C)C(=O)N[C@@H](Cc1c[nH]c2ccccc12)C(=O)N[C@@H](CC(N)=O)C(=O)N[C@H](C(=O)N[C@H]1CSSC[C@@H](C(=O)N[C@@H](Cc2c[nH]cn2)C(=O)N[C@@H](CCCNC(=N)N)C(=O)N[C@@H](CCCNC(=N)N)C(=O)N[C@@H](C)C(=O)N[C@@H](CC(N)=O)C(N)=O)NC(=O)[C@H](C(C)C)NC(=O)[C@H](CCCNC(=N)N)NC(=O)[C@H](C(C)C)NC(=O)CNC(=O)[C@H](CC(N)=O)NC(=O)[C@H](CCCNC(=N)N)NC(=O)[C@H](Cc2ccc(O)cc2)NC(=O)[C@H](C(C)C)NC1=O)C(C)C)C(C)C | HPLC | mouse kidney homogenate | 2560 µM, 6.00 h, 37 °C, 50 mg/mL tissue | – | remaining peptide | 59.5% and 60.4% and 64%
CN(C(=O)n1cnc(-c2ccc[n+]([O-])c2)c1)C1CCCCC1 | – | Wistar rat, cerebellum | oral, 10 mg/kg, 1 h, single dose | – | concentration | 315 ± 39.1 ng/g
CC(C)[C@H](C(=O)O[C@H](C#N)c1cccc(Oc2ccccc2)c1)c1ccc(Cl)cc1 | item: CYP2C9 | human, age 6 months | – | – | enzyme contribution to clearance | 20%
CN[C@@H](C)C(=O)N[C@H]1CN(S(=O)(=O)c2cccc(S(=O)(=O)N3CC[C@H]4CC[C@@H](C(=O)NC(c5ccccc5)c5ccccc5)N4C(=O)[C@@H](NC(=O)[C@H](C)NC)C3)c2)CC[C@H]2CC[C@@H](C(=O)NC(c3ccccc3)c3ccccc3)N2C1=O | – | patients with advanced solid tumours | 30 mg, phase I monotherapy | – | treatment-related ALT elevation incidence | 33.3%
CO[C@H]1C[C@@H]2CC[C@@H](C)[C@@](O)(O2)C(=O)C(=O)N2CCCC[C@H]2C(=O)O[C@H]([C@H](C)C[C@@H]2CC[C@@H](OC(=O)NCCOCCOCCOCCOCCOCCOCCOCCOCCC(=O)N3CCc4cc(Cn5nc(-c6ccc7oc(N)nc7c6)c6c(N)ncnc65)ccc4C3)[C@H](OC)C2)C[C@@H](O)[C@H](C)/C=C(\C)[C@@H](O)[C@@H](OC)C(=O)[C@H](C)C[C@H](C)/C=C/C=C/C=C/1C | phase 1 dose escalation, item: mucositis | advanced solid tumour patients | intravenous, 12 mg weekly, grade ≥3 | – | TRAE incidence | 25%
COc1cc2c(Oc3ccc4[nH]c(C)cc4c3F)ccnc2cc1OCC1(N)CC1 | – | paediatric recurrent refractory sarcoma | 12 mg | – | grade 3 Hypothyroidism | 0%
Cc1ncnc2c1ccn2[C@@H]1C[C@H](Oc2cc(C(F)F)c(F)c3c2CNCC3)[C@@H](O)[C@H]1O | – | patients | dose not given, any grade | baseline: patients | Dyspnea incidence | 8%
CCC[C@@](N)(CO)CCc1ccc(OCCCCCC(C)C)cc1 | – | dog, male hounds, plasma | oral capsule, 10 mg/kg, geometric mean | – | AUC(0-inf) | 7.48 µM·h
NC(=O)[C@H]1CCN(c2ncnc(N)c2F)C[C@@H]1N1CCC[C@@H](Nc2cc(Cl)cc(C(F)(F)F)c2)C1=O | – | B-cell malignancy patients | oral, 410 mg twice daily, dose | – | grade ≥3 hyponatraemia | 0%

Excerpt of the above:
Compound | test | system | setting | scale | endpoint | value
CCC[C@@](N)(CO)CCc1ccc(OCCCCCC(C)C)cc1 | – | dog, male hounds, plasma | oral capsule, 10 mg/kg, geometric mean | – | AUC(0-inf) | 7.48 µM·h
